Published values pooled from the literature.
Each line is one published result; not all experiments were run side by side. ± gives the spread as reported.

The IC50 of `CCCCn1cc(C(=O)O)c(=O)c2cc(F)c3c(nnn3-c3ccccc3OC)c21` is reported as 3240 ± 364 µg/mL (DPPH radical scavenging; 30 min).
`CCCCSc1nnc(-c2ccccc2Cl)o1` gave an IC50 of 63.9 ± 4.4 µM (nitric oxide scavenging).
For `CC(=O)C1=C(C)NC(=O)NC1c1ccc(F)cc1F` (stereo not shown), the IC50 was 140 µM (nitric oxide scavenging).
`COc1ccc(-c2c(O)oc3c(CC=C(C)C)c(O)cc(O)c3c2=O)cc1` gave an IC50 of greater than 100 µg/mL (oxidative burst, luminol chemiluminescence; human whole blood; with: zymosan).
For `CC(C)(C)c1ccc(-c2nnc(S)o2)cc1`, the IC50 was 117 ± 3.3 µM (H2O2 scavenging).
`CC(C)CCCC(C)C1CCC2C3CC=C4CC(OC(=O)CCC(=O)NCCCCCCNC(=O)O[C@H]5[C@@H](O)[C@H](n6cnc7c(=O)[nH]c(N)nc76)O[C@@H]5COP(=O)(O)OP(=O)(O)OP(=O)([S-])OC[C@H]5O[C@@H](n6c[n+](C)c7c(O)nc(N)nc76)[C@H](O)[C@@H]5O)CCC4(C)C3CCC12C` (mixture of isomers) gave an IC50 of 20.5 ± 5.7 µM (cap-dependent translation; rabbit reticulocyte lysate; 1 h preincubation, with: capped luciferase mRNA).
`CC(=O)[O-].[Cu+2].[O-]c1ccc(Br)cc1C=NCCN1CCOCC1` has an IC50 of 160 µM (DPPH radical scavenging).
For `Sc1nnc(-c2ccccc2)o1`, the IC50 was 112 ± 2.3 µM (nitric oxide scavenging).
`CC(=O)C1=C(C)NC(=O)NC1c1cccc(Cl)c1` (stereo not shown) has an IC50 of 283 µM (nitric oxide scavenging).
For `CC(C)(C)OC(=O)C(NCc1ccc(CCC(=O)NO)nc1)C1CCCCC1` (stereo not shown), the IC50 was 1.66 µM (measured: TNF-alpha; human whole blood; overnight, with: LPS 200 ng/mL).
The IC50 of `CC1OC(OC2C(c3c(O)cc(O)c4c(=O)cc(-c5ccc(O)cc5)oc34)OC(CO)C(O)C2O)C(O)C(O)C1O` (stereo not shown) is reported as 42.1 ± 3.75 µM (AGE formation; BSA-methylglyoxal model).
With `CC(=O)C1=C(C)NC(=O)NC1c1cccc(C)c1` (stereo not shown) the IC50 was 203 µM (nitric oxide scavenging).
For `C[n+]1cn([C@@H]2O[C@H](COP(=O)([S-])OP(=O)(O)OP(=O)(O)OC[C@H]3O[C@@H](n4cnc5c(=O)[nH]c(N)nc54)[C@H](O)[C@@H]3OC(=O)NCCCCCCN)[C@@H](O)[C@H]2O)c2nc(N)nc(O)c21` (mixture of isomers), the IC50 was 6 ± 0.8 µM (cap-dependent translation; rabbit reticulocyte lysate; 1 h preincubation, with: capped luciferase mRNA).
The IC50 of `NS(=O)(=O)c1ccc(/N=N/c2ccc(O)c(/C=N/c3cc(Cl)ccc3O)c2)cc1` is reported as 13.7 ± 1.56 µM (DPPH radical scavenging; 60 min).
With `CCCCSc1nnc(-c2cc([N+](=O)[O-])ccc2Cl)o1` the IC50 was 45.5 ± 1.2 µM (superoxide scavenging, pyrogallol).
The IC50 of `CCCCn1cc(C(=O)O)c(=O)c2cc(F)c3c(nnn3-c3cccc(OC)c3)c21` is reported as 737 ± 102 µg/mL (DPPH radical scavenging; 30 min).
`NS(=O)(=O)c1ccc(/N=N/c2ccc(O)c(/C=N/c3ccccn3)c2)cc1` has an IC50 of 15.2 ± 1.77 µM (DPPH radical scavenging; 60 min).
`CC(=O)C1=C(C)NC(=O)NC1c1ccc(C)cc1` (stereo not shown) has an IC50 of 40 µM (ferric reducing power, FRAP).
The IC50 of `CCCCSc1nnc(-c2ccc(C(C)(C)C)cc2)o1` is reported as 76.5 ± 1.1 µM (nitric oxide scavenging).
With `CCCCCC(O)C=CC1C2CC(CO2)C1CC=CCCCC(=O)O` (stereo not shown) the IC50 was 0.00631 µM (vasoconstriction, pressure myography; mouse third-order mesenteric arteries).
`CC(=O)c1cnc(N)nc1N1CC[C@H]1c1nn2ccc(Cl)c2c(=O)n1-c1ccccc1` has an IC50 of 0.073 µM (Th17 differentiation, measured: IL-22; rheumatoid arthritis patient whole blood).
`C#CCNC(=O)CNC(=O)CNC(=O)[C@@H]1CCCN1C(=O)[C@H](CC(=O)O)NC(=O)CNC(=O)[C@H](CCCNC(=N)N)NC(=O)[C@H](CC(=O)O)NC(=O)CNC(=O)[C@H](CCCNC(=N)N)NC(=O)[C@H](CC(=O)O)NC(=O)CNC(=O)[C@H](CCCNC(=N)N)NC(=O)[C@H](CC(=O)O)NC(=O)CNC(=O)[C@@H](N)CCCNC(=N)N` gave an IC50 of greater than 250 µM (translation, luciferase reporter; Escherichia coli S30 extract).
`COc1cccc(C2NC(=O)NC(C)=C2C(C)=O)c1` (stereo not shown) has an IC50 of 217 µM (ferric reducing power, FRAP).
`Sc1nnc(-c2ccccc2Cl)o1` gave an IC50 of 105 ± 3.4 µM (H2O2 scavenging).
With `CCCCn1cc(C(=O)O)c(=O)c2cc(F)c(Nc3ccccc3OC)c(N)c21` the IC50 was 15.1 ± 1.21 µg/mL (DPPH radical scavenging; 30 min).
`COc1ccc(C2NC(=O)NC(C)=C2C(C)=O)cc1` (stereo not shown) gave an IC50 of 96.4 µM (nitric oxide scavenging).
`CCCCSc1nnc(-c2cc(Cl)ccc2Cl)o1` gave an IC50 of 84.9 ± 2.2 µM (superoxide scavenging, pyrogallol).
For `NC(=O)COc1ccc2c(=O)c(OCC(N)=O)c(-c3ccc(OCC(N)=O)c(OCC(N)=O)c3)oc2c1`, the IC50 was 33.8 µM (DPPH radical scavenging; methanol; 30 min, with: DPPH 50 µM).
With `BP(=O)(OP(=O)([O-])OC[C@H]1O[C@@H](n2c[n+](C)c3c(=O)[nH]c(N)nc32)[C@H](O)[C@@H]1O)OP(=O)([O-])OC[C@H]1O[C@@H](n2c[n+](C)c3c(=O)[nH]c(N)nc32)[C@H](O)[C@@H]1O` the IC50 was 2.77 µM (cap-dependent translation, inhibitor; rabbit reticulocyte lysate; no pre-incubation; reference: m7GpppG).
`COc1ccc(NC(=O)[C@H](CCCCN)NC(=O)c2cc(NC(=O)[C@H](CCCCN)NC(=O)c3cc(NC(=O)[C@H](CCCCN)NC(=O)c4cc(NC(=O)[C@@H](N)CCCCN)ccc4OC)ccc3OC)ccc2OC)cc1C(N)=O` gave an IC50 of 1.1 µM (heparin reversal, aPTT; human citrated plasma; with: unfractionated heparin 0.5 U/mL).
For `C#CCCCC(=O)NCC(=O)NCC(=O)NCC(=O)N1CCC[C@H]1C(=O)N[C@@H](CCCCN)C(=O)N[C@@H](CCCCN)C(=O)N[C@@H](CCCCN)C(=O)N[C@@H](CCCNC(=N)N)C(=O)N[C@@H](CCCCN)C(=O)N[C@H](C(=O)NCC(=O)NCC(N)=O)C(C)C`, the IC50 was greater than 250 µM (translation, luciferase reporter; Escherichia coli S30 extract).
`CCCCCCCCCCCCCCCCCCCCCCCCCCCCCCOC(=O)/C=C/c1ccc(O)cc1` has an IC50 of greater than 100 µg/mL (oxidative burst, luminol chemiluminescence; human whole blood; with: zymosan).
`CC[C@H](C)[C@H](NC(C)=O)C(=O)N[C@H]1CCSC[C@@H](C(=O)N[C@H](C(N)=O)[C@@H](C)O)NC(=O)[C@H](CCCNC(=N)N)NC(=O)[C@H](Cc2c[nH]cn2)NC(=O)[C@H](C)NC(=O)CNC(=O)[C@H](Cc2c[nH]c3ccccc23)NC(=O)[C@H](CC(=O)O)NC(=O)[C@H](CCC(N)=O)NC(=O)[C@H](Cc2c[nH]c3ccccc23)NC(=O)[C@H](C(C)C)NC1=O` has an IC50 of greater than 20 µM (classical complement activation, inhibitor, C3b deposition ELISA; normal human plasma; 15 min, plasma 1:80).
`CC(=O)C1=C(C)NC(=O)NC1c1ccc(Cl)cc1` (stereo not shown) gave an IC50 of 144 µM (ferric reducing power, FRAP).
For `Cn1ccc(-c2cc(Cl)c(Cl)c3[nH]c4c(c23)CN(C(=O)CO)CC4)n1`, IC50 read “inactive” (measured: CXCL10; mouse whole blood; with: 100 bp dsDNA).
For `Nc1ccc(-c2nnc(S)o2)cc1`, the IC50 was 47.7 ± 3.3 µM (H2O2 scavenging).
The IC50 of `CC[C@H](C)[C@H](NC(C)=O)C(=O)N[C@H]1CSSC[C@@H](C(=O)N(C)[C@H](C(N)=O)[C@@H](C)CC)NC(=O)[C@H](CCCNC(=N)N)NC(=O)[C@H](Cc2c[nH]cn2)NC(=O)[C@H](C)NC(=O)CN(C)C(=O)[C@H](Cc2c[nH]c3ccccc23)NC(=O)[C@H](CC(=O)O)NC(=O)[C@H](CCC(N)=O)NC(=O)[C@H](Cc2cn(C)c3ccccc23)NC(=O)[C@H](C(C)C)NC1=O` is reported as 0.062 µM (complement activation, ELISA, measured: C3 fragment deposition; human serum; classical pathway).
With `C#CCNC(=O)CNC(=O)CNC(=O)[C@H](Cc1ccc(O)cc1)NC(=O)[C@H](Cc1c[nH]cn1)NC(=O)[C@H](Cc1ccccc1)NC(=O)[C@H](Cc1c[nH]cn1)NC(=O)[C@H](CC(C)C)NC(=O)[C@H](Cc1c[nH]cn1)NC(=O)[C@H](Cc1ccccc1)NC(=O)[C@@H](N)Cc1ccccc1` the IC50 was 205 µM (translation, luciferase reporter; rabbit reticulocyte lysate).
`CC(=O)C1=C(C)NC(=O)NC1c1ccc(Br)cc1` (stereo not shown) gave an IC50 of 262 µM (ferric reducing power, FRAP).
With `NS(=O)(=O)c1ccc(/N=N/c2ccc(O)c(/C=N/c3nccs3)c2)cc1` the IC50 was 16.4 ± 0.33 µM (DPPH radical scavenging; 60 min).

A few entries again:
`CCCCCCCCCCCCCCCCCCCCCCCCCCCCCCOC(=O)/C=C/c1ccc(O)cc1` has an IC50 of greater than 100 µg/mL (oxidative burst, luminol chemiluminescence; human whole blood; with: zymosan).
`CC(=O)C1=C(C)NC(=O)NC1c1ccc(Br)cc1` (stereo not shown) gave an IC50 of 262 µM (ferric reducing power, FRAP).
With `CCCCCC(O)C=CC1C2CC(CO2)C1CC=CCCCC(=O)O` (stereo not shown) the IC50 was 0.00631 µM (vasoconstriction, pressure myography; mouse third-order mesenteric arteries).
`COc1ccc(NC(=O)[C@H](CCCCN)NC(=O)c2cc(NC(=O)[C@H](CCCCN)NC(=O)c3cc(NC(=O)[C@H](CCCCN)NC(=O)c4cc(NC(=O)[C@@H](N)CCCCN)ccc4OC)ccc3OC)ccc2OC)cc1C(N)=O` gave an IC50 of 1.1 µM (heparin reversal, aPTT; human citrated plasma; with: unfractionated heparin 0.5 U/mL).
